{"data": "Results from different studies", "note": "Parts stem from different laboratories: compare values within a part only. Substitutions count along the parent as printed.", "UniProt P24723, sequence (whole entry, looked up)": "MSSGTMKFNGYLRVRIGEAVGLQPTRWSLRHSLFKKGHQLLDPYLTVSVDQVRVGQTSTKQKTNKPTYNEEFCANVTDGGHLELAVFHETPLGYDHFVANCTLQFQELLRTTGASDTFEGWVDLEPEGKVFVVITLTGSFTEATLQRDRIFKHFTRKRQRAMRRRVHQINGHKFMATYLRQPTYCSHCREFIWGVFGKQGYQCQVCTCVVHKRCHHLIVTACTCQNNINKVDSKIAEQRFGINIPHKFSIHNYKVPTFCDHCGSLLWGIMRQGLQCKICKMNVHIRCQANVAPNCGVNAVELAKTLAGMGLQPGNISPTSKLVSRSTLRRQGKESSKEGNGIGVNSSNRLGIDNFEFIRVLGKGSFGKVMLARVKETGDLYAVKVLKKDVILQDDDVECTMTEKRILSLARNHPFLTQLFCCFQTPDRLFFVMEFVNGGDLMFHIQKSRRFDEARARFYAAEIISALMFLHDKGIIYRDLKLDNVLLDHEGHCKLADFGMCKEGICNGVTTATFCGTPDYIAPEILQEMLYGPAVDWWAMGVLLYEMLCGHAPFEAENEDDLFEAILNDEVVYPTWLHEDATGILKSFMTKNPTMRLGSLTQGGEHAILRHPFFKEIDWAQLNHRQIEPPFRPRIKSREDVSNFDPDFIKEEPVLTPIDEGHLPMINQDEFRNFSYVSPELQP", "UniProt P49761, sequence (whole entry, looked up)": "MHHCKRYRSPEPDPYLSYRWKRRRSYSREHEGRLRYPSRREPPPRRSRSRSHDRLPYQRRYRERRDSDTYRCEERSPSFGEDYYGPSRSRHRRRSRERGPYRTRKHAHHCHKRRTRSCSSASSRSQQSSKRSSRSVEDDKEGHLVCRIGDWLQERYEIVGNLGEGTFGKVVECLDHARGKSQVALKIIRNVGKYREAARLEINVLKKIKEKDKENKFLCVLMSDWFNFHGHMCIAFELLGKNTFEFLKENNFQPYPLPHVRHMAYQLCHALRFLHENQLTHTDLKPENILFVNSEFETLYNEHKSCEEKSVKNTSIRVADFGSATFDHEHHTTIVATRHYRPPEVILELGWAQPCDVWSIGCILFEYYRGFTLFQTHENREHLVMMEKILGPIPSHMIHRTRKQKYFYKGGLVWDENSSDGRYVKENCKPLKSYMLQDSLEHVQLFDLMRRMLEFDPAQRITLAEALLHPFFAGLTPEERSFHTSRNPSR", "UniProt Q9H093, sequence (whole entry, looked up)": "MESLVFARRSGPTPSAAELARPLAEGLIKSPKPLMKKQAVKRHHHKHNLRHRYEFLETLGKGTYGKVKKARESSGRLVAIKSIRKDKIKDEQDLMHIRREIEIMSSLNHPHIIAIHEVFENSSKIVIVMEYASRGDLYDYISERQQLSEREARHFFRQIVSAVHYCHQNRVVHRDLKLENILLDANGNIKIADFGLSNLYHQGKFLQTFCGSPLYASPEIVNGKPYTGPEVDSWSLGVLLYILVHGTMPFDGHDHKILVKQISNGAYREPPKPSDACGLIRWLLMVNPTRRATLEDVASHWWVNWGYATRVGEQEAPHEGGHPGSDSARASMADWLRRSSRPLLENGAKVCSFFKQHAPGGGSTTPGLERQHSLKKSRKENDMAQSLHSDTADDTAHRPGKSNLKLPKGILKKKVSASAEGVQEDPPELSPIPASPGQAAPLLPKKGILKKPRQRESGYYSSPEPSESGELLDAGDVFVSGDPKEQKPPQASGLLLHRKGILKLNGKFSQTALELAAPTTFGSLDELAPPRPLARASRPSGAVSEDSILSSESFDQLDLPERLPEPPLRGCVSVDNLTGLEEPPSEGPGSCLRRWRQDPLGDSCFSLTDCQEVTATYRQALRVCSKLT", "UniProt Q6PHR2, sequence (whole entry, looked up)": "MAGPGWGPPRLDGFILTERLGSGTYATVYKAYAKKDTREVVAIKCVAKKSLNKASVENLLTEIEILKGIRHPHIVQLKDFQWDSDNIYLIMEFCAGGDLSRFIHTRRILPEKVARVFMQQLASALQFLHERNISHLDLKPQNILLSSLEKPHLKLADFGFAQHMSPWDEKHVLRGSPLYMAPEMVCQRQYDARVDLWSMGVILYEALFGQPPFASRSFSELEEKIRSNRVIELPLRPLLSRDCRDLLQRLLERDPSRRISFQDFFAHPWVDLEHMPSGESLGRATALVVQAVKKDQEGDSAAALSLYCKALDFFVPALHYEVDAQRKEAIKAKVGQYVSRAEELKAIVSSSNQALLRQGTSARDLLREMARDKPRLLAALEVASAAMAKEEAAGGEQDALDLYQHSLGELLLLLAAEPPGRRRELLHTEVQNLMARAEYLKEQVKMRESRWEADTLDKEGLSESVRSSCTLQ", "UniProt Q96PY6, sequence (whole entry, looked up)": "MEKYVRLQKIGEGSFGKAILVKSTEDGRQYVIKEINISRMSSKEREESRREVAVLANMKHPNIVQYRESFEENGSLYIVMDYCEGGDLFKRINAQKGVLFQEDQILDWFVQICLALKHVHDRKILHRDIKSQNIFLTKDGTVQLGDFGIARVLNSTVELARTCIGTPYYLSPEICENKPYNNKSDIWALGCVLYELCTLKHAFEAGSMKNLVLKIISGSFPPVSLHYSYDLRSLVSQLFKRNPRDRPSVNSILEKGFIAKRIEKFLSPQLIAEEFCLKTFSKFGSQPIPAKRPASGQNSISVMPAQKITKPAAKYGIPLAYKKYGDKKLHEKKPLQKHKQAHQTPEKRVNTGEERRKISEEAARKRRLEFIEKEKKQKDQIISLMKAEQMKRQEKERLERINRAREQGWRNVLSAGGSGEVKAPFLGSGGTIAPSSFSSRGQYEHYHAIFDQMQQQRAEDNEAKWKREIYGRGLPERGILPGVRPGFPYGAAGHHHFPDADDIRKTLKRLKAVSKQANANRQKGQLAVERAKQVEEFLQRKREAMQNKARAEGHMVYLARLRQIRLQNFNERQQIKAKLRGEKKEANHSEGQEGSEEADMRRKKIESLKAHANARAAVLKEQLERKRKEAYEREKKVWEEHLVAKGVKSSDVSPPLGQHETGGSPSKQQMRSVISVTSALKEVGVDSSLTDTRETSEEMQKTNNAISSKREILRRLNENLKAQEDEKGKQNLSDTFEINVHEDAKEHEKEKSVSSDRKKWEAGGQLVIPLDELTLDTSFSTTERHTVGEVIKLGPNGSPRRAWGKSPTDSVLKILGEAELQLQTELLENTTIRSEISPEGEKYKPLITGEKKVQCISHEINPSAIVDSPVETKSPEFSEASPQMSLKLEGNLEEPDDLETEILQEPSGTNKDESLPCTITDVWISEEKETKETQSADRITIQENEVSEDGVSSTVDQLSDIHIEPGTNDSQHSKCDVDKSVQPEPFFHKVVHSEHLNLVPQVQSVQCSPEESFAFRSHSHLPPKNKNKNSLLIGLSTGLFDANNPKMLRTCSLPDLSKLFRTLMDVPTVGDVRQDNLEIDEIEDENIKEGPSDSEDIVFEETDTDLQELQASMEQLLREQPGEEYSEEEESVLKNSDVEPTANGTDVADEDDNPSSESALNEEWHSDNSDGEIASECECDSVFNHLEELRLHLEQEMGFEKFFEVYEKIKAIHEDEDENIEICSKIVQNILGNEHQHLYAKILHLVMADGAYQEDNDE", "UniProt P35626, sequence (whole entry, looked up)": "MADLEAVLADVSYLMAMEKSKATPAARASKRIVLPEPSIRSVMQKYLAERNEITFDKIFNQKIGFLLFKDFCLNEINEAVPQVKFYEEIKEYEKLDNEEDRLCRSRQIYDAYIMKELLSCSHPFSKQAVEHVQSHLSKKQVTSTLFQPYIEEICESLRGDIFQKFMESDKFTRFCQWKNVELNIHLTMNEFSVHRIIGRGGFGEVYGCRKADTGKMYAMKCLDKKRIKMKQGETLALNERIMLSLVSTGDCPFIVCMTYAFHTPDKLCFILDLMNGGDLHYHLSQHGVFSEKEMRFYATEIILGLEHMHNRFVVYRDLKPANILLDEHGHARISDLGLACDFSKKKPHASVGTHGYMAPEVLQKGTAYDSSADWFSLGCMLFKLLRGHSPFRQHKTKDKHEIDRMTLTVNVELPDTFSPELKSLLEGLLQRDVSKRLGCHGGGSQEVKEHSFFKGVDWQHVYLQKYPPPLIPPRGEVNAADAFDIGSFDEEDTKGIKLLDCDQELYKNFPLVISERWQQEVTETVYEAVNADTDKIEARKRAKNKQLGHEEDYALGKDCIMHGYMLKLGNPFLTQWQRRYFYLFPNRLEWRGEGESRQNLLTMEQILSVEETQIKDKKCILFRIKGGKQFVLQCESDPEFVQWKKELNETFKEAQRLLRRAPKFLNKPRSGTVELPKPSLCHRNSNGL"}
{"data": "Set 1", "target": "Ribosomal protein S6 kinase alpha-1 (RPS6KA1, Homo sapiens, UniProt Q15418)", "observed": "enzyme activity", "action": "inhibitor", "concentration": "0.5 µM", "reference": "control", "UniProt Q15418, sequence (whole entry, looked up)": "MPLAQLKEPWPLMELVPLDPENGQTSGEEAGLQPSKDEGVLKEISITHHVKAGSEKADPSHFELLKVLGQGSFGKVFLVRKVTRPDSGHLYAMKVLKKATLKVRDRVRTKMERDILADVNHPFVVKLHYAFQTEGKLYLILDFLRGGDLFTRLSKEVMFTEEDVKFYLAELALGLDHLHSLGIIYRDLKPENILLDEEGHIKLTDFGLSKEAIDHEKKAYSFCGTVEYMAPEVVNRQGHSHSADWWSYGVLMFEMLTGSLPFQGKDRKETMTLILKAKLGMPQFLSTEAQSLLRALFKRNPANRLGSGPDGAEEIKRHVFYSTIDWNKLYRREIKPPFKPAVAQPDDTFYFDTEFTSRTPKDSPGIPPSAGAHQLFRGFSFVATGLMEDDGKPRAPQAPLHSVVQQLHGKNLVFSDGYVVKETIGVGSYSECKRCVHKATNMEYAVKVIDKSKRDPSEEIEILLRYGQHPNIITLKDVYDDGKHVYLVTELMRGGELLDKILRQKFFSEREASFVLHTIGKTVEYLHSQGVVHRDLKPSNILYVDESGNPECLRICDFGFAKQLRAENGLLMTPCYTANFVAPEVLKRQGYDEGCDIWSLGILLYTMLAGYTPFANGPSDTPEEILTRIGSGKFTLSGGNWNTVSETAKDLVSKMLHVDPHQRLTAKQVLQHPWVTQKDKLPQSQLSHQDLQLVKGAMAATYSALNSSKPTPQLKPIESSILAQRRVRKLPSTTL"}
{"Compound": "O=C1NC(=O)C(c2cn(CCCn3ccnc3)c3ccccc23)=C1Nc1ccccc1", "remaining activity": "7.54%"}
{"Compound": "O=S(=O)(c1cccc2cnccc12)N1CCCNCC1", "remaining activity": "89.2%"}
{"Compound": "CCOC(=O)c1c(C)[nH]c(/C=C2\\C(=O)Nc3ccccc32)c1C", "remaining activity": "77.6%"}
{"Compound": "COc1ccc(CNC(=O)Nc2ncc([N+](=O)[O-])s2)cc1", "remaining activity": "96.3%"}
{"Compound": "Cn1sc(=O)n(Cc2ccccc2)c1=O", "remaining activity": "97.6%"}
{"Compound": "Oc1ccc(-c2nc(-c3ccncc3)c(-c3ccc(F)cc3)[nH]2)cc1", "remaining activity": "98.1%"}
{"Compound": "COc1cc2nccc(Oc3ccc(NC(=S)NC(=O)c4ccccc4C)cc3)c2cc1OC", "remaining activity": "97.3%"}
{"Compound": "COc1cc2ncnc(Nc3ccc(Oc4ccccc4)cc3)c2cc1OC", "remaining activity": "97.6%"}
{"Compound": "Cc1nc(-c2ccccc2)c(-c2ccncc2)o1", "remaining activity": "103%"}
{"Compound": "O=C(CCCc1ccc(-c2ccccc2F)cc1)Nc1ccc(O)cc1", "remaining activity": "102%"}
{"Compound": "O=c1c2ccccc2[nH]c(=S)n1CCN1CCC(=C(c2ccc(F)cc2)c2ccc(F)cc2)CC1", "remaining activity": "97.9%"}
{"Compound": "CN(C)c1ccc(C=C2C(=O)Nc3ccccc32)cc1", "remaining activity": "78.4%"}
{"Compound": "Nc1ccc2ncnc(NCCc3ccc(Oc4ccccc4)cc3)c2c1", "remaining activity": "108%"}
{"Compound": "CNC(=O)c1cc(Oc2ccc(NC(=O)Nc3ccc(Cl)c(C(F)(F)F)c3)cc2)ccn1", "remaining activity": "101%"}
{"data": "Set 2", "target": "PABPC1L2, full length, GST fusion (mouse, UniProt A0ABA7IW68)", "method": "RNAcompete", "molecule type": "RNA", "matrix": "in vitro", "concentration": "20 nM", "notes": "7-mer, probes averaged, single round", "reference": "mean of 7-mers", "reading": "higher = stronger binding", "Residues (chain)": "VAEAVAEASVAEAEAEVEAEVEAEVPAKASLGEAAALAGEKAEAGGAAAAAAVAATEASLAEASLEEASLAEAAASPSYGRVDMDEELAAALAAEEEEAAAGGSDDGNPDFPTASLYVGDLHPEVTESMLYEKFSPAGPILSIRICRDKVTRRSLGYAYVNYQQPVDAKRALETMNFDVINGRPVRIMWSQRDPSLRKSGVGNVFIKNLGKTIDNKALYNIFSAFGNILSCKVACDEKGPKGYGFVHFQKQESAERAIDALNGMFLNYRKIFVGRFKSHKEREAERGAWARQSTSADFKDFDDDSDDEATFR"}
{"Strand": "UGCCGGU", "7-mer Z-score": -0.271}
{"Strand": "GUUGGCG", "7-mer Z-score": -0.211}
{"Strand": "GUGGUCG", "7-mer Z-score": -0.204}
{"Strand": "CGCACUC", "7-mer Z-score": -0.179}
{"Strand": "AAUAGAG", "7-mer Z-score": 0.595}
{"Strand": "AAUCAUA", "7-mer Z-score": 0.294}
{"Strand": "AGAGCCG", "7-mer Z-score": -0.402}
{"Strand": "AUCUCAA", "7-mer Z-score": -0.146}
{"data": "Set 3", "target": "JDP2, bZIP domain (human)", "method": "DHFR protein complementation", "matrix": "yeast", "notes": "single substitutions, most at no-binding floor", "reference": "wild-type JUN-FOS pair", "reading": "higher = stronger binding", "starting sequence": "JUN, bZIP domain (human); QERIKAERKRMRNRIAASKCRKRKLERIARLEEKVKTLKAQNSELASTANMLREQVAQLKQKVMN; partner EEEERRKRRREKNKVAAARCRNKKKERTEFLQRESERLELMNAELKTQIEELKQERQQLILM"}
{"Variant": "A46W", "binding fitness [natural log]": 0.222}
{"Variant": "A46D", "binding fitness [natural log]": 0.0708}
{"Variant": "E33D", "binding fitness [natural log]": 0.267}
{"Variant": "A29H", "binding fitness [natural log]": 0.143}
{"Variant": "M51D", "binding fitness [natural log]": 0.322}
{"Variant": "E32H", "binding fitness [natural log]": 0.161}
{"Variant": "V56S", "binding fitness [natural log]": -0.198}
{"Variant": "L52T", "binding fitness [natural log]": -0.249}
{"data": "Set 4", "Compound": "CN([C@@H]1CCc2c(CC(=O)O)c3ccccc3n2C1)S(=O)(=O)c1ccc(F)cc1", "observed": "cell-free assay", "method": "competition with immobilised ligand", "concentration": "1 µM"}
{"target": "Testis-specific serine/threonine-protein kinase 1 (TSSK1B, Homo sapiens, UniProt Q9BXA7)", "remaining binding": "100%"}
{"target": "Ribosomal protein S6 kinase alpha-1, N-terminal kinase domain (RPS6KA1, Homo sapiens, UniProt Q15418)", "remaining binding": "100%"}
{"target": "Protein kinase C eta type (PRKCH, Homo sapiens, UniProt P24723)", "remaining binding": "100%"}
{"target": "Serine/threonine-protein kinase TBK1 (TBK1, Homo sapiens, UniProt Q9UHD2)", "remaining binding": "100%"}
{"target": "Dual specificity protein kinase CLK3 (CLK3, Homo sapiens, UniProt P49761)", "remaining binding": "97%"}
{"target": "Atypical kinase COQ8B, mitochondrial (COQ8B, Homo sapiens, UniProt Q96D53)", "remaining binding": "100%"}
{"target": "G protein-coupled receptor kinase 3 (GRK3, Homo sapiens, UniProt P35626)", "remaining binding": "70%"}
{"target": "Serine/threonine-protein kinase Nek1 (NEK1, Homo sapiens, UniProt Q96PY6)", "remaining binding": "100%"}
{"target": "Serine/threonine-protein kinase ULK3 (ULK3, Homo sapiens, UniProt Q6PHR2)", "remaining binding": "80%"}
{"target": "NUAK family SNF1-like kinase 2 (NUAK2, Homo sapiens, UniProt Q9H093)", "remaining binding": "100%"}
{"note": "Repeated from above (set 2):"}
{"Strand": "AAUAGAG", "7-mer Z-score": 0.595}
{"Strand": "AAUCAUA", "7-mer Z-score": 0.294}
{"Strand": "AGAGCCG", "7-mer Z-score": -0.402}
